Measured values gathered from unrelated publications.
A part holds a random share of what one study measured.

Set 1
Target: RING finger protein unkempt homolog, zinc fingers 1-6, GST-SBP tag (UNK, Homo sapiens, UniProt Q9C0B0, residues 30-357)
UniProt Q9C0B0, sequence (30-357, looked up): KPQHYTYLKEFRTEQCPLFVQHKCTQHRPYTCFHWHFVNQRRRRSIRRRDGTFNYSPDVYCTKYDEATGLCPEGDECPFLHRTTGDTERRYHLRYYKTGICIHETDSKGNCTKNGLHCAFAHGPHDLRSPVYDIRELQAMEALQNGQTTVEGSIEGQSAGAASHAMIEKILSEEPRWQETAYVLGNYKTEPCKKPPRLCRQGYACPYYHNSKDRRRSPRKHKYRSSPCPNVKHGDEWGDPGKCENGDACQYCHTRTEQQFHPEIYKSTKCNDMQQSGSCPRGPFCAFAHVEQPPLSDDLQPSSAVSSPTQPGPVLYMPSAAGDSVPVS
Technique: RNA Bind-n-Seq
Molecule type: RNA
Sample: in vitro
Tested at: not given
Setting: RNA with constant flanks, human and mouse sites, ends assumed
Reference: input RNA pool
Reading: higher = stronger binding
With `GGGAGUUCUACAGUCCGACGAUCUUGAAACAAGUUCUCGGCCAGAUGGUGAUUGAUGAAGAGCUGUUGGGAGAUGGACACAGCUAUAGCCCUAGAGCUAUUCAUUCAUGGUUGACAAGAGCCAUGUACAGCCGCCGCUCCAAGCAACAGAGGAUUGAGCAUCA` the bound/input enrichment was 0.16 ratio.
`GGGAGUUCUACAGUCCGACGAUCUUCAUAGAGAUGAGUGUUGAGCAGGAGAUUCUGGUGACUGGGAUAAAGGUUGUGGAUCUGCUGGCCCCAUACGCCAAGGGUGGGAAAAUCGGACUCUUUGGAGGUGCUGGCGUUGGAAAGCAACAGAGGAUUGAGCAUCA` gave a bound/input enrichment of 0.503 ratio.
For `GGGAGUUCUACAGUCCGACGAUCUUUCUUUCCAUAAGAGAUGUGUCUUGCUUAUGAAGUGAUCUAACUUUGGCUAUGCUUGUAGGCCCGUGGGACGUGCAUGUGCACAGUGACUUGGCAAAGGAUCUAGAUGAGAAUGAAGUUCAACAGAGGAUUGAGCAUCA`, the bound/input enrichment was 0.542 ratio.
`GGGAGUUCUACAGUCCGACGAUCACUAAAAGCAAAUGGGGAACGAUCCCUCGGGGCCCAGCAUCUCAAUUUUAUAUAACUCCCAAUACAUCCCUAAGUCCUCGACAGAGUGGACCACAGUGGAAAGGCCCCAAAGCAACUGUUCAACAGAGGAUUGAGCAUCA` gave a bound/input enrichment of 0.236 ratio.

Set 2
Target: Histone acetyltransferase KAT6A, both winged helices, GST fusion (KAT6A, Homo sapiens, UniProt Q92794, residues 1-181)
Technique: protein binding microarray
Molecule type: double-stranded DNA, one strand shown
Sample: in vitro
Tested at: not given
Setting: 8-mer, flanks averaged, mean of 2 arrays, mostly near background
Reference: not given
Reading: higher = stronger binding
Target sequence (chain): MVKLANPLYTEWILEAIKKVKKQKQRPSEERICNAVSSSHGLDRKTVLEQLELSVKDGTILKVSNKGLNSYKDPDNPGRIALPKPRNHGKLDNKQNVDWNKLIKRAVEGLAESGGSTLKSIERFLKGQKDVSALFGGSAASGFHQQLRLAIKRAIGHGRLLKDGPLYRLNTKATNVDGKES
`CCCTTCCG` has an E-score of 0.118.
`CTAGAAAG` gave an E-score of 0.03.
`CAGATAGA` gave an E-score of -0.244.
`GCACATAA` gave an E-score of 0.0135.
For `CTTATTCC`, the E-score was -0.112.
`ATGAAGCC` gave an E-score of 0.0288.
With `CAGACTTA` the E-score was -0.104.

Set 3
Target: Ras GTPase-activating protein-binding protein 1, full length (G3BP1, Homo sapiens, UniProt Q13283)
UniProt Q13283, sequence (whole entry, looked up): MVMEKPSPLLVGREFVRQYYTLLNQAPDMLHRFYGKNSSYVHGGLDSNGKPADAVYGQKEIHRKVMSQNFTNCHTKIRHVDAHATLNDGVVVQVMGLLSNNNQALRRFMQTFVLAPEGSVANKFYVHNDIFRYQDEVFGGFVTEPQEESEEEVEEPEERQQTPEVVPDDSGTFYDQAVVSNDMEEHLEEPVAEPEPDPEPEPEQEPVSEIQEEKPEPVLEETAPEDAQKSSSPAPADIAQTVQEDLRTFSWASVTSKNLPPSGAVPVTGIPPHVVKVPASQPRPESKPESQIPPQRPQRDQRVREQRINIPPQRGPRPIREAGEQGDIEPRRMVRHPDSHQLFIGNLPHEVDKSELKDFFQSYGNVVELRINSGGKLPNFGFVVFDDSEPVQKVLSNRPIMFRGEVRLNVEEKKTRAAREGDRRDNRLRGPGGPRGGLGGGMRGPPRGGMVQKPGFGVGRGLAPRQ
Technique: RNA Bind-n-Seq
Molecule type: RNA
Sample: in vitro
Tested at: 200 nM
Setting: whole 134-nt RNA, ends assumed
Added: 150 mM LiCl
Reference: input library
Reading: higher = stronger binding
Each molecule: 7-deaza-guanosine replaces G
Shared flanks, not repeated: GGGAGUUCUACAGUCCGACGAUC … UGGAAUUCUCGGGUGUCAAGG
With `UCCUCAAGUCCUGUGCUACACAUCGUAUGUACCGAAUCGGGAGGGAGGAGGGAAAGUAUUAUGUUACGCCGUUCGGAUCUGCACUUCCAG` the log2 enrichment was 0.301.
`UGUGCUACACAUCGUAUGUACCGAAUCGGGGUUUUUUUGGGGUUUUUGGGGAAAAAAAGGGGAAAGUAUUAUGUUACGCCGUUCGGAUCU` has a log2 enrichment of 0.5.
With `UCCUGUGCUACACAUCGUAUGUACCGAAUCAAACCCCCAAAUUUUUAAAUUUUUUUAAAAAAGUAUUAUGUUACGCCGUUCGGAUCUGCA` the log2 enrichment was 1.36.
The log2 enrichment of `GUAGAAAUUCAUGUAUAAAUGGAACCAUAUAGUACAUACAUAUCAUACUCUUAGGUCUGGCAAAUAUUUGAGGUUCAUCCAUAUUUUAUA` is reported as -1.9.
`UUCCUCAAGUCCUGUGCUACACAUCGUAUGUACCGAAUCGGAGGAGGUGGAAAGUAUUAUGUUACGCCGUUCGGAUCUGCACUUCCAGCA` has a log2 enrichment of -2.24.
The log2 enrichment of `UUUACCCCUCACUGGAGUCAGAUGAAGACAACCCCAUCUUUAAGUCCCGGUCGAAGAAAAGGAAAGGCUCAGACGACGCUCCCUACAGCC` is reported as -1.08.

Single results of other studies
`PhoQ, residues 284 288 289 292 302 303 AQGLTV` has a fold induction of 1.77 (PhoP, residues 12 14 15 18 19 GQAIL (Escherichia coli, UniProt P23836); Sort-seq, measured: YFP reporter; E. coli; PhoQ-PhoP variant library, added: 10 µM Mg2+; reference: high Mg2+ state, higher = stronger signaling).

For quick reference, copied from above (set 3):
With `UCCUCAAGUCCUGUGCUACACAUCGUAUGUACCGAAUCGGGAGGGAGGAGGGAAAGUAUUAUGUUACGCCGUUCGGAUCUGCACUUCCAG` the log2 enrichment was 0.301.
